Measurements pooled from the literature.
Lines come from different studies, so protocols differ.
Organism: Listeria monocytogenes

CC[C@H](C)[C@H](N)C(=O)N[C@@H](CCCNC(=N)N)C(=O)N[C@H](C(=O)N[C@@H](Cc1c[nH]c2ccccc12)C(=O)N[C@@H](Cc1ccccc1)C(=O)N[C@H](C(=O)N[C@@H](CCCCN)C(=O)N[C@H](C(=O)N[C@@H](CCCNC(=N)N)C(=O)N[C@@H](CCCCN)C(=O)N[C@@H](Cc1c[nH]c2ccccc12)C(=O)N[C@@H](CCCCN)C(=O)N[C@@H](C)C(=O)N[C@H](C(=O)N[C@@H](Cc1ccc(O)cc1)C(=O)N[C@@H](Cc1c[nH]cn1)C(=O)N[C@H](C(N)=O)[C@@H](C)O)[C@@H](C)CC)C(C)C)[C@@H](C)CC)C(C)C  MIC (broth dilution; KCTC 13064): 50 µM
CC[C@H](C)[C@H](NC(=O)[C@H](CC(C)C)NC(=O)[C@H](CCCCN)NC(=O)[C@@H](NC(=O)[C@H](C)NC(=O)[C@H](CCC(=O)O)NC(=O)[C@H](Cc1c[nH]cn1)NC(=O)[C@@H](NC(=O)[C@H](CCCCN)NC(=O)[C@H](CCC(N)=O)NC(=O)[C@H](Cc1ccccc1)NC(=O)[C@@H](NC(=O)[C@H](CCCCN)NC(=O)[C@@H](N)CCCCN)C(C)C)[C@@H](C)CC)[C@@H](C)CC)C(N)=O  MIC (CLSI broth microdilution; KCTC 3710; 18 h, 37 °C): 64 µM
CC[C@H](C)[C@H](NC(=O)[C@H](CCCCN)NC(=O)[C@@H](NC(=O)[C@H](Cc1ccc(O)cc1)NC(=O)[C@H](CCCCN)NC(=O)[C@H](CCCCN)NC(=O)CNC(=O)[C@H](CCCCN)NC(=O)[C@@H](NC(=O)[C@H](C)NC(=O)[C@H](CC(C)C)NC(=O)[C@H](Cc1c[nH]c2ccccc12)NC(=O)CNC(=O)[C@@H](NC(=O)[C@H](Cc1ccccc1)NC(=O)[C@H](CCCCN)NC(=O)[C@H](CC(C)C)NC(=O)[C@H](Cc1ccccc1)NC(=O)[C@H](C)NC(=O)CNC(=O)[C@@H](N)CCSC)C(C)C)[C@@H](C)O)C(C)C)C(=O)N[C@@H](C)C(=O)N[C@@H](Cc1c[nH]c2ccccc12)C(=O)N[C@@H](CC(=O)O)C(=O)N[C@@H](Cc1c[nH]cn1)C(=O)N[C@@H](CCCCN)C(=O)NCC(=O)N[C@H](C(=O)N[C@H](C(=O)N[C@@H](CCSC)C(=O)N[C@@H](CCCCN)C(=O)N[C@@H](Cc1c[nH]c2ccccc12)C(=O)N[C@@H](CC(C)C)C(=O)N[C@@H](CC(N)=O)C(=O)N[C@@H](C)C(=O)NCC(=O)N[C@@H](CCC(N)=O)C(=O)N[C@H](C(=O)N[C@@H](Cc1ccccc1)C(=O)N[C@H](C(=O)N[C@@H](Cc1c[nH]c2ccccc12)C(=O)N[C@H](C(=O)N[C@@H](Cc1ccc(O)cc1)C(=O)N[C@@H](CCC(=O)O)C(=O)N[C@@H](CCC(N)=O)C(=O)N[C@H](C(=O)N[C@@H](CCCCN)C(=O)N[C@@H](CCCCN)C(=O)N[C@@H](CC(C)C)C(=O)N[C@@H](Cc1c[nH]c2ccccc12)C(=O)N[C@H](C(=O)O)[C@@H](C)O)[C@@H](C)CC)C(C)C)[C@@H](C)O)[C@@H](C)O)[C@@H](C)CC)[C@@H](C)O  MIC (broth microdilution; CECT 4032; 37 °C): 2 µg/mL
CC(C)C[C@H](NC(=O)[C@H](C)NC(=O)[C@@H](NC(=O)[C@H](CCCNC(=N)N)NC(=O)[C@H](CC(C)C)NC(=O)[C@H](Cc1c[nH]c2ccccc12)NC(=O)[C@@H]1CCCN1C(=O)[C@@H](N)CCCCN)C(C)C)C(=O)N[C@@H](CS)C(=O)N1CCC[C@H]1C(=O)NCC(=O)O  MIC (broth microdilution; NH1): 128 µM
CC(C)C[C@@H](NC(=O)[C@H](C)NC(=O)CNC(=O)[C@@H](NC=O)C(C)C)C(=O)N[C@@H](C)C(=O)N[C@@H](C(=O)N[C@H](C(=O)N[C@@H](C(=O)N[C@@H](Cc1c[nH]c2ccccc12)C(=O)N[C@H](CC(C)C)C(=O)N[C@@H](Cc1ccc2cc[nH]c2c1)C(=O)N[C@H](CC(C)C)C(=O)N[C@@H](Cc1c[nH]c2ccccc12)C(=O)N[C@H](CC(C)C)C(=O)N[C@@H](Cc1c[nH]c2ccccc12)C(=O)NCCO)C(C)C)C(C)C)C(C)C  MIC (broth microdilution; 10403S): 2.1 µM
CC[C@H](C)[C@H](NC(=O)CN)C(=O)NCC(=O)N[C@@H](CCCCN)C(=O)N[C@@H](Cc1ccccc1)C(=O)N[C@@H](CC(C)C)C(=O)N[C@@H](CCCCN)C(=O)N[C@@H](CCCCN)C(=O)N[C@@H](C)C(=O)N[C@@H](CCCCN)C(=O)N[C@@H](CCCCN)C(=O)N[C@@H](Cc1ccccc1)C(=O)NCC(=O)N[C@@H](CCCCN)C(=O)N[C@@H](C)C(=O)N[C@@H](Cc1ccccc1)C(=O)N[C@H](C(=O)N[C@@H](CCCCN)C(=O)N[C@H](C(=O)N[C@@H](CC(C)C)C(=O)N[C@@H](CCCCN)C(=O)N[C@@H](CCCCN)C(N)=O)[C@@H](C)CC)C(C)C  MIC (broth dilution; KCTC 13064): 3.1 µM
CC(C)C[C@@H](NC(=O)[C@H](C)NC(=O)CNC(=O)[C@@H](NC=O)C(C)C)C(=O)N[C@@H](C)C(=O)N[C@@H](C(=O)N[C@H](C(=O)N[C@@H](C(=O)N[C@@H](Cc1c[nH]c2ccccc12)C(=O)N[C@H](CC(C)C)C(=O)N[C@@H](Cc1cccc2[nH]ccc12)C(=O)N[C@H](CC(C)C)C(=O)N[C@@H](Cc1c[nH]c2ccccc12)C(=O)N[C@H](CC(C)C)C(=O)N[C@@H](Cc1c[nH]c2ccccc12)C(=O)NCCO)C(C)C)C(C)C)C(C)C  MIC (broth microdilution; 10403S): 2.1 µM
CC[C@H](C)[C@H](NC(=O)[C@H](CC(C)C)NC(=O)[C@H](CCCCN)NC(=O)[C@@H](NC(=O)[C@H](C)NC(=O)[C@H](CCC(=O)O)NC(=O)[C@H](Cc1c[nH]cn1)NC(=O)[C@@H](NC(=O)[C@H](CCCCN)NC(=O)[C@H](CCC(N)=O)NC(=O)[C@H](Cc1ccccc1)NC(=O)[C@@H](N)C(C)C)[C@@H](C)CC)[C@@H](C)CC)C(N)=O  MIC (CLSI broth microdilution; KCTC 3710; 18 h, 37 °C): > 128 µM
CC(C)C[C@H](NC(=O)[C@@H](NC(=O)[C@H](CCCNC(=N)N)NC(=O)[C@H](CCC(N)=O)NC(=O)[C@H](Cc1ccccc1)NC(=O)[C@H](Cc1ccc(O)cc1)NC(=O)[C@H](CC(N)=O)NC(=O)[C@H](Cc1c[nH]c2ccccc12)NC(=O)[C@@H](NC(=O)[C@H](CCCNC(=N)N)NC(=O)[C@H](CCCCN)NC(=O)[C@@H](N)Cc1ccccc1)C(C)C)C(C)C)C(=O)N[C@H](C(=O)N[C@@H](CCCCN)C(=O)N[C@@H](CCCCN)C(=O)N[C@@H](Cc1ccc(O)cc1)C(=O)N[C@@H](C)C(N)=O)C(C)C  MIC (broth dilution; KCTC 13064): 50 µM
CC(C)C[C@@H](NC(=O)[C@H](C)NC(=O)CNC(=O)[C@@H](NC=O)C(C)C)C(=O)N[C@@H](C)C(=O)N[C@@H](C(=O)N[C@H](C(=O)N[C@@H](C(=O)N[C@@H](Cc1c[nH]c2ccccc12)C(=O)N[C@H](CC(C)C)C(=O)N[C@@H](Cc1ccc2[nH]ccc2c1)C(=O)N[C@H](CC(C)C)C(=O)N[C@@H](Cc1c[nH]c2ccccc12)C(=O)N[C@H](CC(C)C)C(=O)N[C@@H](Cc1c[nH]c2ccccc12)C(=O)NCCO)C(C)C)C(C)C)C(C)C  MIC (broth microdilution; 10403S): 8.5 µM

A few entries again:
CC(C)C[C@H](NC(=O)[C@@H](NC(=O)[C@H](CCCNC(=N)N)NC(=O)[C@H](CCC(N)=O)NC(=O)[C@H](Cc1ccccc1)NC(=O)[C@H](Cc1ccc(O)cc1)NC(=O)[C@H](CC(N)=O)NC(=O)[C@H](Cc1c[nH]c2ccccc12)NC(=O)[C@@H](NC(=O)[C@H](CCCNC(=N)N)NC(=O)[C@H](CCCCN)NC(=O)[C@@H](N)Cc1ccccc1)C(C)C)C(C)C)C(=O)N[C@H](C(=O)N[C@@H](CCCCN)C(=O)N[C@@H](CCCCN)C(=O)N[C@@H](Cc1ccc(O)cc1)C(=O)N[C@@H](C)C(N)=O)C(C)C  MIC (broth dilution; KCTC 13064): 50 µM
